Results collected from several papers.
Lines come from different studies, so protocols differ. ± gives the spread as reported. ≈ marks a conversion by molar mass, not a printed value.

| Substance | organism | assay | test system | setting | quantity | result |
| --- | --- | --- | --- | --- | --- | --- |
| O=S(=O)(Cc1ccccc1)c1nc2ccccc2s1 | Schistosoma mansoni | parasite motility | – | 48 h, adult | EC50 | ~6000 nM |
| Cc1cc(C)cc(S(=O)(=O)c2c(C(=O)NCCCCCNS(=O)(=O)c3ccc(C#N)cc3)[nH]c3ccc(Cl)cc23)c1 | HIV-1 | viral replication | MT-4, IIIB | – | EC50 | 33 ± 8.2 nM |
| Oc1cccc2ccccc12 | Oryzias latipes | – | female | dose not given, 21 d | hepatic vitellogenin | increased |
| CCn1cc(C(=O)Nc2ncccc2O)c(=O)c2cc(F)c(N3CCN(C(=O)c4ccco4)CC3)cc21 | Mycolicibacterium smegmatis | microbial growth | – | 50 µM | inhibition | ~10% |
| Cc1cc(C)cc(S(=O)(=O)c2c(C(=O)NCCNS(=O)(=O)c3cccnc3)[nH]c3ccc(Cl)cc23)c1 | HIV-1 | viral replication | MT-4, IIIB | – | EC50 | 7.3 ± 1.6 nM |
| CC[C@H]1OC(=O)[C@H](C)[C@@H](O[C@H]2C[C@@](C)(OC)[C@@H](O)[C@H](C)O2)[C@H](C)[C@@H](O[C@@H]2O[C@H](C)C[C@H](N(C)C)[C@H]2O)[C@](C)(O)C[C@@H](C)C(=O)[C@H](C)[C@@H](O)[C@]1(C)O | coagulase-negative Staphylococcus | – | community-acquired pneumonia patients | Fine score below 70 | sensitive strains | 66.7% |
| CCOC(=O)c1nc2ccccc2c(=O)n1Cc1cn(-c2cccc(F)c2)nn1 | Candida tropicalis | microbial growth, broth dilution | ATCC750 | 24 h | IC50 | 182 µg/mL |
| CCc1cc(CC)n(C(N)=S)n1 | Staphylococcus epidermidis | broth microdilution, agar subculture | ATCC 12228 | 24 h | MBC | > 1000 µg/mL |
| Cc1noc(/C=C/c2ccccn2)c1[N+](=O)[O-] | Schistosoma mansoni | parasite motility, imaging | – | 48 h, larva | EC50 | ~2500 nM |
| CC[C@H]1OC(=O)[C@H](C)[C@@H](O[C@H]2C[C@@](C)(OC)[C@@H](O)[C@H](C)O2)[C@H](C)[C@@H](O[C@@H]2O[C@H](C)C[C@H](N(C)C)[C@H]2O)[C@](C)(O)C[C@@H](C)CN(C)[C@H](C)[C@@H](O)[C@]1(C)O | coagulase-negative Staphylococcus | – | community-acquired pneumonia patients | Fine score 70 or more | sensitive strains | 75% |
| Nisin A | Streptococcus agalactiae | deferred antagonism overlay | ATCC 13813, GM17 agar | concentration not given, produced by spotted strain | inhibition zone diameter | 14.1 ± 0.6 mm |
| Cc1cc(C)cc(S(=O)(=O)c2c(C(=O)NCCCNS(=O)(=O)c3ccccc3)[nH]c3ccc(Cl)cc23)c1 | HIV-1 | viral replication | MT-4, IIIB | – | EC50 | 29 ± 3.6 nM |
| CCOC(=O)N1CCN(Cn2nc(C34CC5CC(CC(C5)C3)C4)n(-c3ccccc3)c2=S)CC1 | Bacillus subtilis | – | IFO 3007 | 200 µg/disc, 24 h, 37 °C | inhibition zone diameter | 19 mm |
| Cc1cc(C)cc(S(=O)(=O)c2c(C(=O)NCCNS(=O)(=O)c3ccccc3F)[nH]c3ccc(Cl)cc23)c1 | HIV-1 | viral replication | MT-4, IIIB | – | EC50 | 18 ± 3.6 nM |
| COc1ccc(-n2cc(Cn3c(C(=O)O)nc4ccccc4c3=O)nn2)cc1 | Candida tropicalis | microbial growth, broth dilution | ATCC750 | 24 h | IC50 | 162 µg/mL |
| COCCSc1nnc(C23CC4CC(CC(C4)C2)C3)n1-c1ccccc1 | Bacillus subtilis | – | IFO 3007 | 200 µg/disc, 24 h, 37 °C | inhibition zone diameter | < 10 mm |
| NC(=O)c1ncn([C@@H]2O[C@H](CO)[C@@H](O)[C@H]2O)n1 | Tobacco mosaic virus | inactivation activity | host plant | 500 µg/mL | inhibition | 54% |
| Cc1ccccc1NCc1ccc(Oc2ccccn2)cc1 | Mycobacterium tuberculosis | – | H37Rv, 7H9/ADC/Tween medium | 1 week | MIC | 40 µM (≈ 11.6 µg/mL) |
| Cc1cc(C)cc(S(=O)(=O)c2c(C(=O)NCCCNS(=O)(=O)c3ccc(F)cc3)[nH]c3ccc(Cl)cc23)c1 | HIV-1 | viral replication | MT-4, IIIB | – | EC50 | 38 ± 6.9 nM |
| CCC(=O)O[C@H]1[C@H](C)O[C@@H](O[C@H]2[C@H](N(C)C)[C@@H](O)[C@H](O[C@H]3[C@@H](CC=O)C[C@@H](C)[C@@H](O)/C=C/C=C/C[C@@H](C)OC(=O)C[C@@H](O)[C@@H]3OC)O[C@@H]2C)C[C@@]1(C)O | Bacillus subtilis | – | ATCC 6633, DMSO-methanol | 50 µL of 2.0 mM, 24 h, 37 °C, 9 mm well | inhibition zone diameter | 29 mm |
| CCOC(=O)c1nc2ccccc2c(=O)n1Cc1cn(-c2ccc(F)cc2)nn1 | Candida tropicalis | microbial growth, broth dilution | ATCC750 | 24 h | IC50 | 435 µg/mL |

| Substance | organism | assay | test system | setting | quantity | result |
| --- | --- | --- | --- | --- | --- | --- |
| Fc1ccc(NCc2ccc(Oc3ccccn3)cc2)cc1 | Mycobacterium tuberculosis | – | H37Rv, 7H9/ADC/Tween medium | 1 weeks | MIC | > 50 µM |
| CN(C)CCSc1nnc(C23CC4CC(CC(C4)C2)C3)n1C | Bacillus subtilis | – | IFO 3007 | 200 µg/disc, 24 h, 37 °C | inhibition zone diameter | 13 mm |
| O=C(O)c1ccc(-n2cc(Cn3c(C(=O)O)nc4ccccc4c3=O)nn2)cc1 | Candida tropicalis | microbial growth, broth dilution | ATCC750 | 24 h | IC50 | 457 µg/mL |
| COc1ccc(NCc2ccc(Oc3ccccn3)cc2)cc1 | Mycobacterium tuberculosis | – | H37Rv, GAST-Fe medium | 2 weeks, pH 6.6 | MIC | 41 µM (≈ 12.6 µg/mL) |
| NC(=O)c1ncn([C@@H]2O[C@H](CO)[C@@H](O)[C@H]2O)n1 | tobacco mosaic virus | half-leaf method | tobacco | 500 µg/mL | inactivation activity | 72.7 ± 4.7% |
| Cc1ccccc1-n1cc(Cn2c(C(=O)O)nc3ccccc3c2=O)nn1 | Candida tropicalis | microbial growth, broth dilution | ATCC750 | 24 h | IC50 | 233 µg/mL |
| Cc1cc(C)cc(S(=O)(=O)c2c(C(=O)NCCNS(=O)(=O)c3cccc(F)c3)[nH]c3ccc(Cl)cc23)c1 | HIV-1 | viral replication | MT-4, IIIB | – | EC50 | 36 ± 3.6 nM |
| O=C(O)c1nc2ccccc2c(=O)n1Cc1cn(-c2ccccc2Cl)nn1 | Candida tropicalis | microbial growth, broth dilution | ATCC750 | 24 h | IC50 | 211 µg/mL |
| CNC1=C([N+](=O)[O-])C2(C(=O)Nc3ccc(Br)cc32)c2c(c3ccccc3oc2=O)O1 (stereo not drawn) | Salmonella enterica | microbial growth | TYPHIMURIUM | 250 µg/mL, 24 h | inhibition | 37.6% |
| CC1(C)S[C@@H]2[C@H](NC(=O)[C@H](N)c3ccc(O)cc3)C(=O)N2[C@H]1C(=O)O | Enterococcus | – | community-acquired pneumonia patients | Fine score 70 or more | sensitive strains | 100% |
| O=C(O)c1nc2ccccc2c(=O)n1Cc1cn(-c2ccccc2)nn1 | Candida tropicalis | microbial growth, broth dilution | ATCC750 | 24 h | IC50 | 184 µg/mL |
| CNC1=C([N+](=O)[O-])C2(C(=O)Nc3ccc([N+](=O)[O-])cc32)C2=C(CC(C)(C)CC2=O)O1 (stereo not drawn) | Salmonella enterica | microbial growth | TYPHIMURIUM | 250 µg/mL, 24 h | inhibition | 61% |
| Cc1ccc(C(=O)N(C(=O)c2ccc(C)cc2)C(=S)N2N=C(c3ccc(F)cc3)CC2c2cccc(F)c2)cc1 (stereo not drawn) | Artemia | cytotoxicity | – | 24 h | IC50 | 115000 ± 9700 nM |
| CNC1=C([N+](=O)[O-])C2(C(=O)Nc3ccc(Cl)cc32)c2c(c3ccccc3oc2=O)O1 (stereo not drawn) | Salmonella enterica | microbial growth | TYPHIMURIUM | 250 µg/mL, 24 h | inhibition | 57.1% |
| N=C(N)c1ccc(OCCCCCOc2ccc(C(=N)N)cc2)cc1 | Leishmania tarentolae | viability, resazurin | promastigotes, YEM/PBS | 48 h, 26 °C, with: 10% FCS | IC50 | 360 ± 340 nM |
| Cc1cc(N)nc(CCc2cc(N)cc(CCc3cc(C)cc(N)n3)c2)c1 | Bacillus subtilis | bacterial survival, NOS inhibitor | – | 500 µM, 0.5 h, with: acriflavine 800 µM | inhibition | ~99% |
| Cc1ccc(NCc2ccc(Oc3ccccn3)cc2)cc1 | Mycobacterium tuberculosis | – | H37Rv, 7H9/ADC/Tween medium | 2 weeks | MIC | 86 µM (≈ 25 µg/mL) |
| CNC1=C([N+](=O)[O-])C2(C(=O)Nc3ccc(Br)cc32)C2=C(CC(C)(C)CC2=O)O1 (stereo not drawn) | Salmonella enterica | microbial growth | TYPHIMURIUM | 250 µg/mL, 24 h | inhibition | 61.4% |
| CCOC(=O)c1nc2ccccc2c(=O)n1Cc1cn(-c2ccccc2OC)nn1 | Candida tropicalis | microbial growth, broth dilution | ATCC750 | 24 h | IC50 | 13.8 µg/mL |
| Cc1cc(C)cc(S(=O)(=O)c2c(C(=O)NCCNS(=O)(=O)c3ccc([N+](=O)[O-])cc3)[nH]c3ccc(Cl)cc23)c1 | HIV-1 | viral replication | MT-4, IIIB | – | EC50 | 120 ± 29 nM |
| CC(C)(O/N=C(\C(=O)N[C@H]1CN2CC(C(=O)NCCN3C(=O)c4cc(O)c(O)cc4C3=O)=C(C(=O)O)N2C1=O)c1nc(N)sc1Cl)C(=O)O | Acinetobacter | – | clinical isolates | low iron, breakpoint 4 µg/mL | susceptible isolates | 86% |
